Published values pooled from the literature.
± marks the error that the study gave.

SMILES	host	matrix	route	dose	time	tissue uptake [%ID/g]
CCCC[C@H](NC(=O)COCCOCCNC(=O)CN1CCN(CC(=O)O)CCN(CC(=O)O)CC1)C(=O)N[C@H]1CC(=O)NCCCC[C@@H](C(N)=O)NC(=O)[C@H](Cc2c[nH]c3ccccc23)NC(=O)[C@H](CCCNC(=N)N)NC(=O)[C@@H](Cc2ccccc2)NC(=O)[C@H](Cc2c[nH]cn2)NC1=O [copper-64 labelled]	C57 mice	brain	intravenous	0.37 MBq	2 h	0.03 ± 0.01
CCCC[C@H](NC(=O)CNC(=O)CNC(=O)CN1CCN(CC(=O)O)CCN(CC(=O)O)CCN(CC(=O)O)CC1)C(=O)N[C@H]1CC(=O)NCCCC[C@@H](C(N)=O)NC(=O)[C@H](Cc2c[nH]c3ccccc23)NC(=O)[C@H](CCCNC(=N)N)NC(=O)[C@@H](Cc2ccccc2)NC(=O)[C@H](Cc2c[nH]cn2)NC1=O [lutetium-177 labelled]	C57 mouse, female	bone	intravenous	0.037 MBq	24 h	0.18 ± 0.24
N=C(N)NCCC[C@@H]1NC(=O)[C@H](CCCCNC(=O)CNC(=O)CNC(=O)CNC(=O)CC[C@H](NC(=O)CNC(=O)CNC(=O)CNC(=O)CN2CCN(CC(=O)O)CCN(CC(=O)O)CCN(CC(=O)O)CC2)C(=O)NCC(=O)NCC(=O)NCC(=O)NCCCC[C@@H]2NC(=O)[C@@H](Cc3ccccc3)NC(=O)[C@H](CC(=O)O)NC(=O)CNC(=O)[C@H](CCCNC(=N)N)NC2=O)NC(=O)[C@@H](Cc2ccccc2)NC(=O)[C@H](CC(=O)O)NC(=O)CNC1=O [indium-111 labelled]	female athymic nu/nu mice	eyes	intravenous		4 h	0.51 ± 0.04
CC(C)C[C@H](NC(=O)[C@@H](CCCCNC(=O)CCCCCNC(=O)CN1CCN(CC(=O)O)CCN(CC(=O)O)CCN(CC(=O)O)CC1)NC(=O)[C@H](Cc1ccc(O)cc1)NC(=O)[C@H](CO)NC(=O)[C@H](Cc1c[nH]c2ccccc12)NC(=O)[C@H](Cc1cnc[nH]1)NC(=O)[C@@H]1CCC(=O)N1)C(=O)N[C@@H](CCCNC(=N)N)C(=O)N1CCC[C@H]1C(=O)NCC(N)=O [indium-111 labelled]	female athymic nude mouse	liver	intravenous	0.037 MBq	2 h	0.77 ± 0.06
N=C(N)NCCC[C@@H]1NC(=O)[C@H](CCCCNC(=O)CC[C@H](NC(=O)CC[C@H](NC(=O)CN2CCN(CC(=O)O)CCN(CC(=O)O)CCN(CC(=O)O)CC2)C(=O)N[C@@H](CCC(=O)NCCCC[C@@H]2NC(=O)[C@@H](Cc3ccccc3)NC(=O)[C@H](CC(=O)O)NC(=O)CNC(=O)[C@H](CCCNC(=N)N)NC2=O)C(=O)NCCCC[C@@H]2NC(=O)[C@@H](Cc3ccccc3)NC(=O)[C@H](CC(=O)O)NC(=O)CNC(=O)[C@H](CCCNC(=N)N)NC2=O)C(=O)NCCCC[C@@H]2NC(=O)[C@@H](Cc3ccccc3)NC(=O)[C@H](CC(=O)O)NC(=O)CNC(=O)[C@H](CCCNC(=N)N)NC2=O)NC(=O)[C@@H](Cc2ccccc2)NC(=O)[C@H](CC(=O)O)NC(=O)CNC1=O [indium-111 labelled]	female athymic nu/nu mice	eyes	intravenous		72 h	0.78 ± 0.46
CCCC[C@H](NC(=O)CCCCCCCNC(=O)CN1CCN(CC(=O)O)CCN(CC(=O)O)CC1)C(=O)N[C@H]1CC(=O)NCCCC[C@@H](C(N)=O)NC(=O)[C@H](Cc2c[nH]c3ccccc23)NC(=O)[C@H](CCCNC(=N)N)NC(=O)[C@@H](Cc2ccccc2)NC(=O)[C@H](Cc2c[nH]cn2)NC1=O [copper-64 labelled]	C57 mice	bone	intravenous	0.37 MBq	0.5 h	1.23 ± 0.34
CCCC[C@H](NC(=O)CNC(=O)CNC(=O)CN1CCN(CC(=O)O)CCN(CC(=O)O)CC1)C(=O)N[C@H]1CC(=O)NCCCC[C@@H](C(N)=O)NC(=O)[C@H](Cc2c[nH]c3ccccc23)NC(=O)[C@H](CCCNC(=N)N)NC(=O)[C@@H](Cc2ccccc2)NC(=O)[C@H](Cc2c[nH]cn2)NC1=O [technetium-99m labelled]	C57 mouse	kidney	iv	0.037 MBq	24 h	0.23 ± 0.19
CC(C)C[C@H](NC(=O)[C@H](Cc1ccc(O)cc1)NC(=O)[C@@H](CCCNC(=N)N)NC(=O)[C@@H](CO)NC(=O)[C@H](Cc1ccccc1)NC(=O)[C@H](CC1CCCCC1)NC(=O)[C@H](CC(=O)O)NC(=O)CN1CCCN2CCN(CCCN(CC(=O)O)CC2)CC1)C(=O)N[C@@H](Cc1c[nH]c2ccccc12)C(=O)N[C@@H](CO)C(=O)O [copper-64 labelled]	female NMRI nude mice	intestine			1 h p.i.	4.3 ± 1.1

Repeated from above:
SMILES	host	matrix	route	dose	time	tissue uptake [%ID/g]
CCCC[C@H](NC(=O)COCCOCCNC(=O)CN1CCN(CC(=O)O)CCN(CC(=O)O)CC1)C(=O)N[C@H]1CC(=O)NCCCC[C@@H](C(N)=O)NC(=O)[C@H](Cc2c[nH]c3ccccc23)NC(=O)[C@H](CCCNC(=N)N)NC(=O)[C@@H](Cc2ccccc2)NC(=O)[C@H](Cc2c[nH]cn2)NC1=O [copper-64 labelled]	C57 mice	brain	intravenous	0.37 MBq	2 h	0.03 ± 0.01
